Results gathered from unrelated publications.
Protocols differ between the studies behind these lines. Values joined by “and” are separate records of one study, mostly repeats; a detail may differ. ± gives the spread as reported.

SMILES	test	system	conditions	solubility
O=C(Nc1ccc(S(=O)(=O)Nc2ncccn2)cc1)c1c(Cl)cccc1Cl		aqueous buffer	pH 7.4	15.2 µg/mL
O=C(CNc1ccc(OC(F)(F)F)cc1)NC12CC3CC(CC(C3)C1)C2			6 h, pH 7.4	< 10 µg/mL
CC(=O)O[C@H]1C(=O)[C@@]2(C)[C@H]([C@H](OC(=O)c3ccccc3)[C@]3(O)C[C@H](OC(=O)[C@H](OC(=O)OCc4cc(C(=O)O)ccc4OP(=O)(O)O)[C@@H](NC(=O)c4ccccc4)c4ccccc4)C(C)=C1C3(C)C)[C@]1(OC(C)=O)CO[C@@H]1C[C@@H]2O	HPLC, saturated solution	simulated gastric fluid	30 s, pH 1.2	22 µg/mL
Cn1nc2ccccc2c1[C@H]1COC(C)(C)[C@@H](c2ccc(-c3ccccc3)cc2)N1	shake-flask, LC-HRMS	aqueous buffer	16 h, pH 6.8	< 4 µM
O=S(=O)(c1ccc(-c2ccc3nccc(Nc4ccccc4)c3c2)cc1)N1CCOCC1	thermodynamic	aqueous medium		12 µM
Cn1cc([C@@H]2COC[C@](C)(c3ccccc3)N2)cn1	shake-flask, LC-HRMS	aqueous buffer	16 h, pH 6.8	> 750 µM
COc1cccc(-c2cccc(Nc3nccc(NC4CCCCC4)n3)c2)c1		citrate phosphate-buffered saline	18 h, pH 7.4, 1% DMSO	0.3 ± 1.1 µM
CCOC(=O)N1C[C@@H](c2cc(Cl)cc(Cl)c2)N[C@@H](c2ccc(N3CCCC3)cc2)C1	shake-flask, LC-HRMS	aqueous buffer	16 h, pH 6.8	< 4 µM
CCc1nnc(NS(=O)(=O)c2ccc(NC(=O)c3ccc(F)cc3)cc2)s1		aqueous buffer	pH 7.4	370 µg/mL
CCCCCCCCCCCCCCCC(=O)NCCOC(=O)C[C@@H](CN)CC(C)C		hydrochloride buffer	12 h, pH 1.2, 37 °C	5560 µg/mL
COc1ccc(-c2cc(=O)c3c(OC)cc(OC)cc3o2)cc1	HPLC	ethanol:butylene glycol 75:25		12830 ± 50 ppm
O=C(Nc1cc(F)c(F)c(F)c1)c1ccc(F)c(S(=O)(=O)N2CCC(O)CC2)c1		phosphate buffer	pH 7.0	35.8 µg/mL
Nc1nc2c(ncn2COCCO)c(=O)[nH]1		methanol + ethanol	24 h, 298.2 K, mass fraction 0.6	452 µg/mL
CCCC[C@H]1CN(c2cccc(OC(F)(F)F)c2)C(=O)CN1Cc1cncn1Cc1ccc(Br)cc1		aqueous solution	maximal solubility	~200 µM
CCOC(=O)N1C[C@@H](c2ccc(C)nc2)N[C@@H](C2CCOCC2)C1	shake-flask, LC-HRMS	aqueous buffer	16 h, pH 6.8	> 750 µM
CCCSc1ccc2nc(NC(=O)OC)[nH]c2c1	UV	DPBS	18 h, room temperature	2.4 ± 0.2 µM
C[C@H]1OC[C@H](c2ccc(-c3ccccn3)cc2)N[C@@H]1c1ccc(F)cc1Cl	shake-flask, LC-HRMS	aqueous buffer	16 h, pH 6.8	< 4 µM
NC[C@H](NC(=O)[C@@H](Cc1c[nH]c2ccccc12)NC(=O)OCC1c2ccccc2-c2ccccc21)C(=O)N[C@@H](CCCCNC(=O)CN1CCN(CC(=O)O)CCN(CC(=O)O)CCN(CC(=O)O)CC1)C(N)=O		water		≥ 5000 µM
Cc1nccn1CC1CCc2c(c3ccccc3n2C)C1=O (centres unmarked)	kinetic solubility	PBS with 2% DMSO	2 h, pH 7.4, 25 °C, single incubation	104 µM and 101 µM
COc1ccc(NC(=O)c2ccco2)cc1NC(=O)c1cccnc1		aqueous buffer	pH 7.4	< 2.41 µg/mL
CCc1cc(C)cc(CC)c1-c1c(OC(=O)C2(C(F)(F)F)CC2)n2n(c1=O)CCOCC2		PBS	pH 7.4, 25 °C, 2% DMSO	333 µM
CC(=O)Nc1ccc(Nc2ncnc(NCCC(=O)OC(C)(C)C)n2)cc1			3 (unit not given)	193 µM
COc1ccc(-c2nnc(SCC(=O)Nc3c(F)cc(F)cc3Br)n2C)cc1		aqueous buffer	pH 7.4	< 3.35 µg/mL
COC1=CC(c2ccc[nH]2)=N/C1=C\c1[nH]c(C)cc1Cc1ccc(OC(F)(F)F)cc1.Cl		potassium phosphate buffer	1.5 h, pH 7.4, room temperature	< 3.13 µM
COc1cc(OC)c2c(=O)c(OC)c(-c3ccc(OC)c(OC)c3)oc2c1	HPLC	ethanol:butylene glycol 50:50		13570 ± 32 ppm

SMILES	test	system	conditions	solubility
COc1cccc2c(NCc3ccccc3)nc(-n3c(N)nc4ccccc43)nc12		aqueous buffer	pH 7.4	0.05 µg/mL
Cc1cc(/C=C/C#N)cc(C)c1Nc1ccnc(Nc2ccc(C#N)cc2)n1		Capmul MCM C8	24 h, 37 °C	1710 ± 160 µg/mL
O=C(Nc1ccccc1)C1(C(F)(F)F)CC1		PBS	pH 7.4, 25 °C, 2% DMSO	371 µM
c1ccc(-c2cccc(Nc3nccc(NC4CCCCC4)n3)c2)nc1		citrate phosphate-buffered saline	18 h, pH 7.4, 1% DMSO	1 ± 4.4 µM
CCOC1=CC(c2ccc[nH]2)=N/C1=C\c1cc(Cc2ccc(Cl)cc2)c(C)[nH]1.Cl		potassium phosphate buffer	1.5 h, pH 7.4, room temperature	< 3.13 µM
CCCNc1ccnc(Nc2cccc(-c3cccnc3)c2)n1		citrate phosphate-buffered saline	18 h, pH 7.4, 1% DMSO	29.4 ± 1.5 µM
c1ccc(CSc2ncnc3nc[nH]c23)cc1	UV absorbance	culture medium	stock diluted to 0.05 mM	50 µM
CCOC(=O)N1C[C@@H](c2ccccc2O)N[C@@H](c2cc(Cl)cc(Cl)c2)C1	shake-flask, LC-HRMS	aqueous buffer	16 h, pH 6.8	< 4 µM
O=S(=O)(c1ccc(-c2ccc3nccc(Nc4cnccn4)c3c2)cc1)N1CCOCC1	thermodynamic	aqueous medium		1 µM
CC1(CNC(=O)c2ccc(-c3ccc(Br)cc3)cc2)NC(=O)NC1=O (centres unmarked)		aqueous buffer	pH 7.4	< 2.87 µg/mL
c1ccc(-c2cccc(Nc3nccc(NC4CCCCC4)n3)c2)cc1		citrate phosphate-buffered saline	18 h, pH 7.4, 1% DMSO	< 0.1 µM
Clc1nc(OCc2ccccc2)c2[nH]cnc2n1	UV absorbance	culture medium	stock diluted to 0.20 mM	80 µM
CCOC(=O)N1C[C@@H](c2ccc(O)cc2)N[C@@H](C2CCOCC2)C1	shake-flask, LC-HRMS	aqueous buffer	16 h, pH 6.8	> 750 µM
COc1cc(OC)c2c(=O)c(OC)c(-c3ccccc3)oc2c1	HPLC	ethanol:butylene glycol 0:100		2189 ± 14 ppm
CN(Cc1ccc(C2(C(F)(F)F)CC2)cc1)Cc1cccc2ccccc12.Cl		PBS	pH 7.4, 25 °C, 2% DMSO	4 µM
CCOc1ccc2nc(SCC(=O)Nc3c(C)n(C)n(-c4ccccc4)c3=O)sc2c1		aqueous buffer	pH 7.4	< 3.25 µg/mL
O=C(Nc1ccc(OC(F)(F)F)cc1)N[C@H]1CC[C@H](Oc2ccc(C(=O)O)cc2)CC1		deionised water	10 min, pH 6.6, 37 °C, non-sink dissolution	0.349 ± 0.0087 µg/mL
O=C(Cc1ccccc1[N+](=O)[O-])Nc1ccccc1C(=O)N1CCOCC1		aqueous buffer	pH 7.4	36.5 µg/mL
CC(=O)Nc1ccc([C@H]2COC[C@@H](c3ccc(C(F)(F)F)cc3)N2)cc1	shake-flask, LC-HRMS	aqueous buffer	16 h, pH 6.8	< 4 µM
Cn1cncc1[C@@](N)(c1ccc(Cl)cc1)c1ccc2c(c1)c(-c1cccc(Cl)c1)cc(=O)n2C		citrate buffer	pH 3.0, 25 °C, final pH 3.21	2200 ± 52.8 µg/mL
Clc1nc(SCc2ccccc2)c2[nH]cnc2n1	UV absorbance	culture medium	stock diluted to 0.14 mM	34 µM
COC(=O)[C@H](C)Nc1ccnc(Nc2cccc(-c3cccnc3)c2)n1		citrate phosphate-buffered saline	18 h, pH 7.4, 1% DMSO	52.6 ± 1.5 µM
C#Cc1ccc(CC2=C(C)C(=O)c3ccccc3C2=O)cc1	kinetic absorbance	2% acetonitrile in water	30 min	< 2.5 µM
COc1cccc(OC)c1CNC(=O)c1ccc2c(c1)C(=NNc1ccc(S(N)(=O)=O)cc1)C(=O)N2		aqueous buffer	pH 7.4	2.73 µg/mL
O=[N+]([O-])c1ccc(Nc2ccnc3ccc(-c4ccc(S(=O)(=O)N5CCOCC5)cc4)cc23)cn1	thermodynamic	aqueous medium		4 µM

For quick reference, copied from above:
SMILES	test	system	conditions	solubility
CC(=O)O[C@H]1C(=O)[C@@]2(C)[C@H]([C@H](OC(=O)c3ccccc3)[C@]3(O)C[C@H](OC(=O)[C@H](OC(=O)OCc4cc(C(=O)O)ccc4OP(=O)(O)O)[C@@H](NC(=O)c4ccccc4)c4ccccc4)C(C)=C1C3(C)C)[C@]1(OC(C)=O)CO[C@@H]1C[C@@H]2O	HPLC, saturated solution	simulated gastric fluid	30 s, pH 1.2	22 µg/mL
CCCNc1ccnc(Nc2cccc(-c3cccnc3)c2)n1		citrate phosphate-buffered saline	18 h, pH 7.4, 1% DMSO	29.4 ± 1.5 µM
CCOC(=O)N1C[C@@H](c2ccc(O)cc2)N[C@@H](C2CCOCC2)C1	shake-flask, LC-HRMS	aqueous buffer	16 h, pH 6.8	> 750 µM
C[C@H]1OC[C@H](c2ccc(-c3ccccn3)cc2)N[C@@H]1c1ccc(F)cc1Cl	shake-flask, LC-HRMS	aqueous buffer	16 h, pH 6.8	< 4 µM
COc1cc(OC)c2c(=O)c(OC)c(-c3ccccc3)oc2c1	HPLC	ethanol:butylene glycol 0:100		2189 ± 14 ppm
O=C(Nc1ccc(OC(F)(F)F)cc1)N[C@H]1CC[C@H](Oc2ccc(C(=O)O)cc2)CC1		deionised water	10 min, pH 6.6, 37 °C, non-sink dissolution	0.349 ± 0.0087 µg/mL
